Assay results collected from several papers.
A part holds a random share of what one study measured.
Sequence of UniProt P11802 (whole entry, looked up): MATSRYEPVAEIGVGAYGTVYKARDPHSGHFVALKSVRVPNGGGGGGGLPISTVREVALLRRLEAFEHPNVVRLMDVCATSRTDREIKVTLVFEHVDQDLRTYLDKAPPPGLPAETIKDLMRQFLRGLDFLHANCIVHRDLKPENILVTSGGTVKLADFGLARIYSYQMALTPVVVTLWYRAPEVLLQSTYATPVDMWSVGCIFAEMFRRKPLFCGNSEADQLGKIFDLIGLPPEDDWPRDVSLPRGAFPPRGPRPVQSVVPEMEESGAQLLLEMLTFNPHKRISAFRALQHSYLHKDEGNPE
Sequence of UniProt Q9H2G2 (whole entry, looked up): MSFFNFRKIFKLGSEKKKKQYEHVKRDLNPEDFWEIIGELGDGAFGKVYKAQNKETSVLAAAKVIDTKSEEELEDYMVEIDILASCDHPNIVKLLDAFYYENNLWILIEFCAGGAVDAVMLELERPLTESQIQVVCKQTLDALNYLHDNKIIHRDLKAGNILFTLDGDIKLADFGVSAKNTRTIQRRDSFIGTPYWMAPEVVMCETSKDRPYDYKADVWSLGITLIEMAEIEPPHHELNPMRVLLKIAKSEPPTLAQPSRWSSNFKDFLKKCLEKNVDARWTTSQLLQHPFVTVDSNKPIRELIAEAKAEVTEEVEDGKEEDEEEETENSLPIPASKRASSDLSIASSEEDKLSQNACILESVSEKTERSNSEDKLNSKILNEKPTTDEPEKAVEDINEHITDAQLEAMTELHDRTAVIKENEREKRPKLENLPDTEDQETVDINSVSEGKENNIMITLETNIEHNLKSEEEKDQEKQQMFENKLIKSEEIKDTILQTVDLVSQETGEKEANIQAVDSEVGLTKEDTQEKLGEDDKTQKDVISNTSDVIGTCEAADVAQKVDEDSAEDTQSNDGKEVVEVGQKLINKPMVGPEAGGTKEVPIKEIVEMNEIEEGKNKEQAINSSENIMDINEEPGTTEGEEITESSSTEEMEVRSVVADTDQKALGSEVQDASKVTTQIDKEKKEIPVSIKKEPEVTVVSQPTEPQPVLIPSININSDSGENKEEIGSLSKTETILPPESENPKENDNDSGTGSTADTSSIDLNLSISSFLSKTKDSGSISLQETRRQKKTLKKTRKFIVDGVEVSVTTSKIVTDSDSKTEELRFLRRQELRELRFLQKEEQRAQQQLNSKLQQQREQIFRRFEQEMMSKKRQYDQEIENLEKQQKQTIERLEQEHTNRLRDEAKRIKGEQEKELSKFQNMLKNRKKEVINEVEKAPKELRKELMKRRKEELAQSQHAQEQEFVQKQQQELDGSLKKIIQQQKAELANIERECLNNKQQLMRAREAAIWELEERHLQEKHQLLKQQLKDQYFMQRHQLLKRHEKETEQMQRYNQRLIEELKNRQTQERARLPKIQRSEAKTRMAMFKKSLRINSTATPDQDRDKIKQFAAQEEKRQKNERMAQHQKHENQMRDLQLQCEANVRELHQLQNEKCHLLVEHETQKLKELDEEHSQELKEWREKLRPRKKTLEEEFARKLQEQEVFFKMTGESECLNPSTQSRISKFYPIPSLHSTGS
Sequence of UniProt Q14680 (whole entry, looked up): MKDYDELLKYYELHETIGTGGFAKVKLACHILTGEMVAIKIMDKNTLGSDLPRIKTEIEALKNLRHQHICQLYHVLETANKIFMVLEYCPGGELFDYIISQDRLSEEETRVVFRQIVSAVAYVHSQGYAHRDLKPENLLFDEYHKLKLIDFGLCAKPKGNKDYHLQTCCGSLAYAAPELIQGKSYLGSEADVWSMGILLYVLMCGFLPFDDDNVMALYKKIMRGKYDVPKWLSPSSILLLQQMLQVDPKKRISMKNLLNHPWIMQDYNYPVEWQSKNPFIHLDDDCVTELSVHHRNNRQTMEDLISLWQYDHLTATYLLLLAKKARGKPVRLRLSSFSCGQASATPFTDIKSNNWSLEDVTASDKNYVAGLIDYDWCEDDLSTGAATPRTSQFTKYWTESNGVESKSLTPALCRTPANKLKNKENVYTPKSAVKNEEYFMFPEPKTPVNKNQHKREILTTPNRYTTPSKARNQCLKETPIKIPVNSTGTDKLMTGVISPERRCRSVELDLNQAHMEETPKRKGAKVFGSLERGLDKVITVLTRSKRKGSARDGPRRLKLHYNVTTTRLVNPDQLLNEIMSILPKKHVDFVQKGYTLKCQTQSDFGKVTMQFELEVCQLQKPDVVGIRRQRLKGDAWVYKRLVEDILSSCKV
Sequence of UniProt P49137 (whole entry, looked up): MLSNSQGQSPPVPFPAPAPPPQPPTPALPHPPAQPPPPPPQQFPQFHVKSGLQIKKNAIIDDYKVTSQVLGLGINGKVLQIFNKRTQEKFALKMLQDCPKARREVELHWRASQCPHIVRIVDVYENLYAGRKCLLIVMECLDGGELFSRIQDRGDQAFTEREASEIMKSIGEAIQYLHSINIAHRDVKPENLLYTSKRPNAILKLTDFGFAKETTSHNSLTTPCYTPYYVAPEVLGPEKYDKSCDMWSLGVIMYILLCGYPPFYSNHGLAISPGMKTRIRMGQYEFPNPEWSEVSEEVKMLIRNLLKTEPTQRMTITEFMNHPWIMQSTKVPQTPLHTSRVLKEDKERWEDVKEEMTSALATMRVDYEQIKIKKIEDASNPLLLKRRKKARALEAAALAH
Sequence of UniProt P61075 (whole entry, looked up): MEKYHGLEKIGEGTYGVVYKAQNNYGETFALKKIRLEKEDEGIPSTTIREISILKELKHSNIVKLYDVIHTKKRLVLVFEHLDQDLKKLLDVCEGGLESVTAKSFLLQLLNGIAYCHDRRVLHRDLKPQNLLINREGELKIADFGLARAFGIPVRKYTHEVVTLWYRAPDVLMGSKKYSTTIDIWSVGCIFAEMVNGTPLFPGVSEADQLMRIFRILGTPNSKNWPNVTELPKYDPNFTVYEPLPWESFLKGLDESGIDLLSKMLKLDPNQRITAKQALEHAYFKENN
Sequence of UniProt P04049 (whole entry, looked up): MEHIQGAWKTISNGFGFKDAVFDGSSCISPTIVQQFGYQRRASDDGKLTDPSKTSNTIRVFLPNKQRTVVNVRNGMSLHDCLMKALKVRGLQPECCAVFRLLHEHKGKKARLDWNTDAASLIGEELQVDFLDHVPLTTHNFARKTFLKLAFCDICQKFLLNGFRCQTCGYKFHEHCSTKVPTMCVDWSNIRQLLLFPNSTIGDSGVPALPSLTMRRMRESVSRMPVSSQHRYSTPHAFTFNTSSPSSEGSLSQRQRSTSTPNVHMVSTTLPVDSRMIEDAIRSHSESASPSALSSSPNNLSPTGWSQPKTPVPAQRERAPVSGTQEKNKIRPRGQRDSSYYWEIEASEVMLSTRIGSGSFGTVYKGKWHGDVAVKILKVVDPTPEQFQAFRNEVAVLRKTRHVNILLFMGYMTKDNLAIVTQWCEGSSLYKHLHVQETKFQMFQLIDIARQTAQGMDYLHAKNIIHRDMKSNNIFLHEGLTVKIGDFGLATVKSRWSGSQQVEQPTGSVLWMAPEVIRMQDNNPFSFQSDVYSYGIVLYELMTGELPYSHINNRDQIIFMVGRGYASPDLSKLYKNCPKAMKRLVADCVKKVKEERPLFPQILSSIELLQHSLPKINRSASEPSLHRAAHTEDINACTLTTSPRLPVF
Sequence of UniProt P22607 (whole entry, looked up): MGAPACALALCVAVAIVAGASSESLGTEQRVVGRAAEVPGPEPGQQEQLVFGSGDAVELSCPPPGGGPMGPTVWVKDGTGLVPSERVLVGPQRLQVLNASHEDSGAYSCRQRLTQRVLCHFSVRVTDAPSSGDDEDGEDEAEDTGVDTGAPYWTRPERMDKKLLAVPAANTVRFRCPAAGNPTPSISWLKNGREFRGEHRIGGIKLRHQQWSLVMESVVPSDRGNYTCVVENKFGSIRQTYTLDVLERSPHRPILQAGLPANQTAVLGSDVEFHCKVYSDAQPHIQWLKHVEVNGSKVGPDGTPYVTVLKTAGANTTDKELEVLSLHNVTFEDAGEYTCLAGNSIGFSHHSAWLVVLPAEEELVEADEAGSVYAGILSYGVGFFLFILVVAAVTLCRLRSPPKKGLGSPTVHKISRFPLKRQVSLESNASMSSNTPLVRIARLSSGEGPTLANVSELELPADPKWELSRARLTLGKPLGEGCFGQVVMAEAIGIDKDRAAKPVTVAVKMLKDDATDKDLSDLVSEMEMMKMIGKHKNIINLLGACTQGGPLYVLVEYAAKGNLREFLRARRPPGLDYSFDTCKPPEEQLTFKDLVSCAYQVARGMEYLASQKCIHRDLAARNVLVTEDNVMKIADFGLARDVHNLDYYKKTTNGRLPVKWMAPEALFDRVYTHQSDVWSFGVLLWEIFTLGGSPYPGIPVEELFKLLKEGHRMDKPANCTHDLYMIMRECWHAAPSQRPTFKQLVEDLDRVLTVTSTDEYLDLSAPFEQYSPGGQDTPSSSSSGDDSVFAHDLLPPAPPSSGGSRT

Set 1
Compound: COc1ccc2c(c1)/C(=C/c1cnc[nH]1)C(=O)N2
Observed: enzyme activity
Mode: inhibitor
Concentration: 0.5 µM
Baseline: control
The remaining activity was 82.1% (Tyrosine-protein kinase Yes (YES1, Homo sapiens, UniProt P07947)).
For Serine/threonine-protein kinase PAK 4 (PAK4, Homo sapiens, UniProt O96013): remaining activity read 100%.
It gave 101% for remaining activity (Receptor tyrosine-protein kinase erbB-2 (ERBB2, Homo sapiens, UniProt P04626)).
Serine/threonine-protein kinase PAK 5 (PAK5, Homo sapiens, UniProt Q9P286) — remaining activity: 96.9%.
It gave 98.7% for remaining activity (Activin receptor type-1-like (ACVRL1, Homo sapiens, UniProt P37023)).
Maternal embryonic leucine zipper kinase (MELK, Homo sapiens, UniProt Q14680) — remaining activity: 36.5%.

Set 2
Target: Calcium/calmodulin-dependent protein kinase type II subunit alpha (CAMK2A, Homo sapiens, UniProt Q9UQM7)
Sequence of UniProt Q9UQM7 (whole entry, looked up): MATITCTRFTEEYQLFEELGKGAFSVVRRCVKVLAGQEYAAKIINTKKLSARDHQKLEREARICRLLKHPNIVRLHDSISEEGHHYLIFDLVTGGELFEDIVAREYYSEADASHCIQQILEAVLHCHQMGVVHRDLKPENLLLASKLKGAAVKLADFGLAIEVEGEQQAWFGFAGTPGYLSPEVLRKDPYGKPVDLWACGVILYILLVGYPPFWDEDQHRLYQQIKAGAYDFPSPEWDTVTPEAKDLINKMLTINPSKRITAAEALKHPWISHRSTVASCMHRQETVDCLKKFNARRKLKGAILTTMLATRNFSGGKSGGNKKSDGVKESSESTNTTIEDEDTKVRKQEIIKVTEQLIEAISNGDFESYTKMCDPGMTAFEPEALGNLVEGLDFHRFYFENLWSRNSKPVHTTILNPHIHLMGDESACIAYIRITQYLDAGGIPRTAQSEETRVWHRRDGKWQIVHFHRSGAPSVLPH
Observed: enzyme activity
Mode: inhibitor
Concentration: 10 µM
With `C[C@H]1CC[C@@H]2N(C1)C[C@H]1[C@@H]3C[C@H]4[C@@H](CC(=O)[C@H]5C[C@@H](O)CC[C@@]54C)[C@@H]3CC[C@H]1[C@]2(C)O` the inhibition was 8%.
`C=C(C)[C@H]1CN[C@H](C(=O)O)[C@H]1CC(=O)O` gave an inhibition of 25%.
`CN1CC[C@@]23C=C[C@H](O)C[C@@H]2Oc2c(O)ccc(c23)C1` has an inhibition of 13%.
With `CC(=O)OC[C@]12[C@H](OC(C)=O)[C@H](OC(C)=O)[C@@H]3[C@@H](OC(C)=O)[C@@]14O[C@@]3(C)COC(=O)c1cccnc1CC[C@H](C)C(=O)O[C@@H]([C@H](OC(=O)c1ccccc1)[C@@H]2OC(C)=O)[C@]4(C)O` the inhibition was -6%.

Set 3
Structure (SMILES): COC(=O)c1cc(N(C)C(=O)c2ccn3ncc(-c4ccc(C(=O)O)cc4)c3c2)ccc1Cl
TGF-beta receptor type-1 (TGFBR1, Homo sapiens, UniProt P36897); enzyme activity, inhibitor — IC50: over 30 µM.
For Mitogen-activated protein kinase kinase kinase 2 (MAP3K2, Homo sapiens, UniProt Q9Y2U5); enzyme activity, inhibitor: IC50 read over 30 µM.
It gave over 30 µM for IC50 (rat benzodiazepine receptor; binding).
The IC50 was over 30 µM (Ephrin type-A receptor 4 (EPHA4, Homo sapiens, UniProt P54764); enzyme activity, inhibitor).
It gave over 30 µM for IC50 (RAF proto-oncogene serine/threonine-protein kinase (RAF1, Homo sapiens, UniProt P04049); enzyme activity, inhibitor).
Muscarinic acetylcholine receptor M2 (CHRM2, Homo sapiens, UniProt P08172); cell-free assay — IC50: over 30 µM.
For Fibroblast growth factor receptor 3 (FGFR3, Homo sapiens, UniProt P22607); enzyme activity, inhibitor: IC50 read over 30 µM.
For Cyclin-dependent kinase 4 (CDK4, Homo sapiens, UniProt P11802); enzyme activity, inhibitor: IC50 read over 30 µM.
It gave 23.5 µM for IC50 (Non-receptor tyrosine-protein kinase TYK2 (TYK2, Homo sapiens, UniProt P29597); enzyme activity, inhibitor).
It gave 11.5 µM for IC50 (STE20-like serine/threonine-protein kinase (SLK, Homo sapiens, UniProt Q9H2G2); enzyme activity, inhibitor).
For eIF-2-alpha kinase GCN2 (EIF2AK4, Homo sapiens, UniProt Q9P2K8); enzyme activity, inhibitor: IC50 read over 30 µM.
The IC50 was over 30 µM (MAP kinase-activated protein kinase 2 (MAPKAPK2, Homo sapiens, UniProt P49137); enzyme activity, inhibitor).
The IC50 was over 30 µM (D(1A) dopamine receptor (DRD1, Homo sapiens, UniProt P21728); cell-free assay).

Other studies, line by line
With `CC(=O)c1c(NS(C)(=O)=O)c2cc(-c3ccc(Cl)cc3)c(-c3ccc(Cl)cc3Cl)nc2n(C)c1=O` the inhibition was -2.4% (Nociceptin receptor (OPRL1, Homo sapiens, UniProt P41146); binding, radioligand binding; 10 µM).
`CN([C@@H]1CCc2c(CC(=O)O)c3ccccc3n2C1)S(=O)(=O)c1ccc(F)cc1` has a remaining binding of 94% (Cyclin-dependent kinase 2 homolog (CRK2, Plasmodium falciparum, UniProt P61075); cell-free assay, competition with immobilised ligand; 1 µM).
For `C[C@H](NC(=O)c1cnc2n1[C@](C)(Cc1ccc(C#N)cc1)C(=O)N2c1cc(Cl)c(F)c(Cl)c1)C(=O)NC1(c2ccccn2)CC1`, the inhibition was 24.3% (5-hydroxytryptamine receptor 2C (HTR2C, Homo sapiens, UniProt P28335); binding, radioligand binding; 10 µM).
